Experimental data from different studies.
Each line is one published result; not all experiments were run side by side.
APP: Amyloid-beta precursor protein (APP, Homo sapiens, UniProt P05067)
Chain of UniProt P05067 (whole entry, looked up): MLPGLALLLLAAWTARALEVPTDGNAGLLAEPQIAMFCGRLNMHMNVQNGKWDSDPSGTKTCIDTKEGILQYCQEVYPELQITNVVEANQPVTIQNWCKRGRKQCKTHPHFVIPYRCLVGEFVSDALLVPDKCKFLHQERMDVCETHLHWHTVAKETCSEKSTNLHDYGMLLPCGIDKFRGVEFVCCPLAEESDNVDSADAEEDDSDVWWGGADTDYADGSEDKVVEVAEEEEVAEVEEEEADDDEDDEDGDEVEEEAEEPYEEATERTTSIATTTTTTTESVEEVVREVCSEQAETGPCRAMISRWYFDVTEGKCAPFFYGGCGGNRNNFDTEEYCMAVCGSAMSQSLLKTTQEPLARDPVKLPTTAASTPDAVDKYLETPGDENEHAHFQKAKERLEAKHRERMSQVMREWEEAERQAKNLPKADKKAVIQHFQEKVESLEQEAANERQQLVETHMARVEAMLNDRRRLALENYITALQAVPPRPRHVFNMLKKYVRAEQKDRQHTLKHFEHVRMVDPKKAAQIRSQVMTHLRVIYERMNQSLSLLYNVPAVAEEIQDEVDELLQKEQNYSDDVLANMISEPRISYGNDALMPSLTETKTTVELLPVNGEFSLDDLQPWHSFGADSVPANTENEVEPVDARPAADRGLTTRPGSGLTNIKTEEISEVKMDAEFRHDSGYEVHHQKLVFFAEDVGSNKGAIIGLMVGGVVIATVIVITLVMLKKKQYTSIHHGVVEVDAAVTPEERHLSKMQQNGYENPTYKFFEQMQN
lasR: Transcriptional activator protein LasR (lasR, Pseudomonas aeruginosa, UniProt P25084)
Chain of UniProt P25084 (whole entry, looked up): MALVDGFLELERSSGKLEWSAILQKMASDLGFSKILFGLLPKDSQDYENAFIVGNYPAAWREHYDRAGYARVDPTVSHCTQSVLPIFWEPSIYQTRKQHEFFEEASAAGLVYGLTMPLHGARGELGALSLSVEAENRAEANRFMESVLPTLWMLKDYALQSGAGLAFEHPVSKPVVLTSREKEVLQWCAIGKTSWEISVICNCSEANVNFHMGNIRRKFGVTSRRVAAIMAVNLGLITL
Chain of UniProt P54578 (whole entry, looked up): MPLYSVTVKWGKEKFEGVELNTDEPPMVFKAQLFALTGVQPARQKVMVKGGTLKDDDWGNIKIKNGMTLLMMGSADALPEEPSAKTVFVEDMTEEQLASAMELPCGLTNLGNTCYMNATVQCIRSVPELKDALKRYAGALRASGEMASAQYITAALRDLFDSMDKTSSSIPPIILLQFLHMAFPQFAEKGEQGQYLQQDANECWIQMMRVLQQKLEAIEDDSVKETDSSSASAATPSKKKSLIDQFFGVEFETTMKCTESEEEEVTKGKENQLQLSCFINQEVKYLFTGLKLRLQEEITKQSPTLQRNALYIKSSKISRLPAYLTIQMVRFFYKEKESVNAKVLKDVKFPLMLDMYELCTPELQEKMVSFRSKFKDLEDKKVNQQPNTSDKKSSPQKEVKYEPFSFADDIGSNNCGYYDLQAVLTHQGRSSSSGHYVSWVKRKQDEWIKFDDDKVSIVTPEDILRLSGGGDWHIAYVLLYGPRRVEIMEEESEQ
Chain of UniProt A5GZW8 (whole entry, looked up): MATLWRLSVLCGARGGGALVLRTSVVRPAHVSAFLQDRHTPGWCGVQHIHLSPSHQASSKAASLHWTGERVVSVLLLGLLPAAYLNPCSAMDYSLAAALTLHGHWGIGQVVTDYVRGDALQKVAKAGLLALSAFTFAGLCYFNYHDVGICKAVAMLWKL
Chain of UniProt O15294 (whole entry, looked up): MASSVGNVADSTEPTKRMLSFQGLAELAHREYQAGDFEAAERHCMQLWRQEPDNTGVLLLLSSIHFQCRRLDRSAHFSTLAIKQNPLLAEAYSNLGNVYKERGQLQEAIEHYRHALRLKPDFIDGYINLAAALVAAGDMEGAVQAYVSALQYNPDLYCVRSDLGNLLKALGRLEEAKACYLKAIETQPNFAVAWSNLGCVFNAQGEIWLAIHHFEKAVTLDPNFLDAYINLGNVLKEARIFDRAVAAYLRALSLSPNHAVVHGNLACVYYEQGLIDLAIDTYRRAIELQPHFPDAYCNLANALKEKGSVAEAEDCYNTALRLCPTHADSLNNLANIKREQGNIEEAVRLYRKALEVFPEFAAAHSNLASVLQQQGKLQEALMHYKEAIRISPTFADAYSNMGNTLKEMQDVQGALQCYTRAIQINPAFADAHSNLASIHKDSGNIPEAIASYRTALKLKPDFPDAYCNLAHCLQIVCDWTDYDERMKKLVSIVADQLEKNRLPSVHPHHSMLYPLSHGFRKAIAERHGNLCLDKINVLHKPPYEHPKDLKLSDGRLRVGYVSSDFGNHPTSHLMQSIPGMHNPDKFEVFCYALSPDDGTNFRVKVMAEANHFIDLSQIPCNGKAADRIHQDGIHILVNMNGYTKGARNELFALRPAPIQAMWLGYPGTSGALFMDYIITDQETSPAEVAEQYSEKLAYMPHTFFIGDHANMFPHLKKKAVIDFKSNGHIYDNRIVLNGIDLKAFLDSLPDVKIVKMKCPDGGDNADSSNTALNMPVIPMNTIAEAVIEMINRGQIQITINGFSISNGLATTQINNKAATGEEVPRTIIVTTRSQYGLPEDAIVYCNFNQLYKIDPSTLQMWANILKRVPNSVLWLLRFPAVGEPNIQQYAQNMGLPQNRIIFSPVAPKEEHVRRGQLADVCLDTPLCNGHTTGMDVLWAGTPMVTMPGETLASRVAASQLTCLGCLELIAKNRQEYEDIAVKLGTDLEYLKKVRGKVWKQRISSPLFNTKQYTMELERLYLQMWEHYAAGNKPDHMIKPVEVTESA
Chain of UniProt Q007T0 (whole entry, looked up): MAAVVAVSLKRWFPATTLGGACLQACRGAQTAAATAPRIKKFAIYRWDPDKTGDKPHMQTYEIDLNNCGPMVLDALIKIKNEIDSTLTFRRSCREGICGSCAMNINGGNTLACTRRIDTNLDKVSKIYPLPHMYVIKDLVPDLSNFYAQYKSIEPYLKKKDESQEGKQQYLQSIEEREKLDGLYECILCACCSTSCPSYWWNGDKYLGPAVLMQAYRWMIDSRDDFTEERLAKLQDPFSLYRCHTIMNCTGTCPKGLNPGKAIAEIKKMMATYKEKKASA
Chain of UniProt Q16539 (whole entry, looked up): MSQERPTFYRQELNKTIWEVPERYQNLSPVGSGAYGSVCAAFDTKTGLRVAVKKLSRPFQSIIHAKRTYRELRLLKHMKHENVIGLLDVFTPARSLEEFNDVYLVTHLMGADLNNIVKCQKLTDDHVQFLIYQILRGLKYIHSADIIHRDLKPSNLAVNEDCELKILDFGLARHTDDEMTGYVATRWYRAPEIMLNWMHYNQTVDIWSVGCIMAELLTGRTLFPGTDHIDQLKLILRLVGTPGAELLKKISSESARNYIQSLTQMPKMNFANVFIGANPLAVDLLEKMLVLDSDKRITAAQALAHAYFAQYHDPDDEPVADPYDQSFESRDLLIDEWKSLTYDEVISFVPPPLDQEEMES
Chain of UniProt Q0QF01 (whole entry, looked up): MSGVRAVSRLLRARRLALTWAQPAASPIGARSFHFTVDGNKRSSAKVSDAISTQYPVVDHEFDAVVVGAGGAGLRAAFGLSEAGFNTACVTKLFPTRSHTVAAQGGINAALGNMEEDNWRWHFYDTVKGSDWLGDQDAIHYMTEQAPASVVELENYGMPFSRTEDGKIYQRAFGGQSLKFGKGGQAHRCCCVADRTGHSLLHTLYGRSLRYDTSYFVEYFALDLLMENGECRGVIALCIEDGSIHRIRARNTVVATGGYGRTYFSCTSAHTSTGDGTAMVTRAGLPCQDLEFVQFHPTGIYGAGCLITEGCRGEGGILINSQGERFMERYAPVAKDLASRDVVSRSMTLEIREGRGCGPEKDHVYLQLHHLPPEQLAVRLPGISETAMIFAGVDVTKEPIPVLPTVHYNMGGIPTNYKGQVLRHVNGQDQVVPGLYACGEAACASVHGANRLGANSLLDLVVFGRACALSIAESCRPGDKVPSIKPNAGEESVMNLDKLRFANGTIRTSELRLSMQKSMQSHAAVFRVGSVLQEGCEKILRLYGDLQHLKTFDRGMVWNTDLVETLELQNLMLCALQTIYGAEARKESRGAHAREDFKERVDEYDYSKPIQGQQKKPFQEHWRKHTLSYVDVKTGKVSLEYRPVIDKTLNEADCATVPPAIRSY
Chain of UniProt D0VWV4 (whole entry, looked up): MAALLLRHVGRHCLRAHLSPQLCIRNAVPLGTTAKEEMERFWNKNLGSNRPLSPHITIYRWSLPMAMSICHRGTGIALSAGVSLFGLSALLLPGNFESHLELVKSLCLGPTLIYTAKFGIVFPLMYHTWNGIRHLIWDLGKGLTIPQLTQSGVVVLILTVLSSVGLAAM

SMILES	target	test	conditions	scale	inhibition
COC(=O)[C@@H]1CCCN1C(=O)[C@@H](O)[C@H](N)CC(C)C	bestatin-sensitive aminopeptidases	enzyme activity, inhibitor, AMC substrate	concentration not given	–	no inhibition
CCCCCc1nc2ccc(/N=N/c3ccc(Cl)cc3)cc2c(-c2ccccc2)c1I	APP	amyloid aggregation, inhibitor, fluorescence	25 µM	–	64.5%
CCCCc1cn(CC(=O)N[C@H]2CCOC2=O)nn1	lasR	reporter gene, antagonist	100 µM, together with: OdDHL 10 nM	–	75%
CC(=O)NC(Cc1ccc(Br)c(Cl)c1)C(=O)N[C@@H](C)C(=O)N1CCC[C@H]1C(=O)N1CCC[C@H]1C(=O)N[C@@H](CCC(=O)O)C(=O)N[C@@H](Cc1c[nH]cn1)C(=O)N[C@@H](CO)C(=O)N[C@H](C(=O)N[C@@H](C)C(N)=O)[C@@H](C)OP(=O)(O)O (some centres unmarked)	Mitogen-activated protein kinase 14 (MAPK14, Homo sapiens, UniProt Q16539)	enzyme activity, inhibitor	10 µM	–	2.17%
C[C@@H](O)[C@H](NC(=O)[C@H](CCCCN)NC(=O)COCCN)C(=O)N[C@@H](CCCNC(=N)N)C(=O)NC(C)(C)C(=O)N[C@@H](CCCNC(=N)N)C(=O)NC(C)(C)C(=O)N[C@H](C(=O)N[C@@H](CO)C(=O)N[C@@H](Cc1c[nH]cn1)C(=O)N[C@@H](Cc1ccc(O)cc1)C(=O)NCC(=O)O)[C@@H](C)O	Integrin alpha-2, I domain (Homo sapiens, UniProt P17301)	binding to collagen I	up to 1×100 nM	maximal	30%
CSCC[C@H](NC(=O)[C@H](Cc1ccccc1)NC(=O)[C@H](CCSC)NC(=O)[C@@H](NC(=O)[C@@H]1CCCN1C(=O)[C@H](Cc1ccccc1)NC(=O)[C@H](CC(=O)O)NC(=O)CN)C(C)C)C(=O)O	UDP-N-acetylglucosamine--peptide N-acetylglucosaminyltransferase 110 kDa subunit (OGT, Homo sapiens, UniProt O15294)	enzyme activity, fluorescence activity	concentration not given	–	no inhibition
Cc1ccc(-c2nc3ccc(/N=N/c4ccc([N+](=O)[O-])cc4)cc3c(-c3ccccc3)c2I)cc1	APP	amyloid aggregation, inhibitor, fluorescence	25 µM	–	~75%
O=C(N[C@H]1CCOC1=O)c1cccc(-n2cc(C3CCCCC3)nn2)c1	lasR	reporter gene, antagonist	10 µM, together with: OdDHL 10 nM	–	21%
CCn1ccc(-c2cc(-c3cnn(C)c3)cc([C@@H](C)NC(=O)c3cc(OCCN(C)C)ccc3C)c2)n1	Ubiquitin carboxyl-terminal hydrolase 14 (USP14, Homo sapiens, UniProt P54578)	Ub-AMC hydrolysis	up to 40 µM	–	no inhibition
CCCCCCc1cn(CC(=O)N[C@H]2CCOC2=O)nn1	lasR	reporter gene, antagonist	100 µM, together with: OdDHL 10 nM	–	23%
O=C(Nc1ccccc1Nc1ccccc1)c1cccnc1Cl	Succinate dehydrogenase complex (Sus scrofa, UniProt A5GZW8+D0VWV4+Q007T0+Q0QF01)	enzyme activity, double-antibody sandwich ELISA	8 µM	–	55%

A few entries again:
SMILES	target	test	conditions	scale	inhibition
C[C@@H](O)[C@H](NC(=O)[C@H](CCCCN)NC(=O)COCCN)C(=O)N[C@@H](CCCNC(=N)N)C(=O)NC(C)(C)C(=O)N[C@@H](CCCNC(=N)N)C(=O)NC(C)(C)C(=O)N[C@H](C(=O)N[C@@H](CO)C(=O)N[C@@H](Cc1c[nH]cn1)C(=O)N[C@@H](Cc1ccc(O)cc1)C(=O)NCC(=O)O)[C@@H](C)O	Integrin alpha-2, I domain (Homo sapiens, UniProt P17301)	binding to collagen I	up to 1×100 nM	maximal	30%
